Published values collected from several papers.
Numbered parts are unrelated; each lists some results of a single study. Positions count from the first letter of the parent shown.

Sample 1
Target: RING finger protein unkempt homolog, zinc fingers 1-6, GST-SBP tag (UNK, Homo sapiens, UniProt Q9C0B0, residues 30-357)
Method: RNA Bind-n-Seq
Molecule type: RNA
Medium: in vitro
Tested at: not given
Setting: RNA with constant flanks, ends assumed
Baseline: input RNA pool
Reading: higher = stronger binding
Measurement: bound/input enrichment
All sequences stand within: GGGAGUUCUACAGUCCGACGAUC … CAACAGAGGAUUGAGCAUCA
Target sequence (chain): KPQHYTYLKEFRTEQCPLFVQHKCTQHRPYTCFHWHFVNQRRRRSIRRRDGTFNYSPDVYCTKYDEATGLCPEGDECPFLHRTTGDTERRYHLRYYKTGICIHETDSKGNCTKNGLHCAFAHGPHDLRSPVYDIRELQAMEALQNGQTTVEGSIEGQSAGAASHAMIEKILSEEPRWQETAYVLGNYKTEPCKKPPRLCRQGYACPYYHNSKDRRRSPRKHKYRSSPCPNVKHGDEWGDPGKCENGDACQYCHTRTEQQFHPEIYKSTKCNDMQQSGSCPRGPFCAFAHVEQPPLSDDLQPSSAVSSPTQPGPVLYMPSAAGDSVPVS
UACCUCUUACAAAAAAAAGAAAAAAAAAGAAAAAGUUCAUUUCUUCAUUCUGUUUGUAUCCCGCGAAGCUGAAUGUCAGAAGCCCCUCUGUCCACACACAAAGUCUGCAUGUAUUGGUCG: 0.727 ratio
CUCAGUGAUCACACACGAAAUUCUGCCGAAGGCACAGAAUAUUUCAAAAUGCUUGCCGACGUUUUUGCUCCAGAAUUUCGAAGGCCAAAGAAUAUACAUCUCCGAAAUUUCUAUAUAAUU: 0.319 ratio
GGCUGACAUGGCUGGCCAUUAAGCUUUAUAAAAUCAUGUGGGCUCUGAAAUUGUUCUUUUAUGUGUCCCGCAAGUAUUUAAUAAACCCUUGUAUAGUAAUUUUGUUGUUGUUGGGUGCUG: 9.67 ratio
CUUUGAUGUCUUGCAUAUAUUGCUGGUGGUAUUUAUGUGAAUUUUGUACAGUGAUUUAAUCUUGCCGUUUAUCAUUUGUACAAUUGCACUAUCUAAAUGUACUCCCUUCUGAAUGUUAAU: 0.361 ratio
UUUUUUACACCAUACGUGUAUCCAGCCACAUGGCCAGAAGAUGACAUCUUCCGACAAGCUAUCCGUCUUCUGAUUGUAACAAAUGUUGGUGCUUACAUCCUUUAUUUCUUCUGUGCAACA: 0.302 ratio
UUAUUUUCAGUUUGUAAUUUUUUUUUUUAAUUUACGUGUAUGUACUCACUAAGAAAGUACAUUUUCCCGGGGCUAAGGAUAUGGCUCAGUGGUAGAGCACUUGCCUAACAUACACAAAGC: 12.8 ratio
AAUAUAAUGCAGGUUUUUAUAUACUGUCUGGAACAGUUGAGCACCAAGCCUGAUGCAGAUACCGAUACUACACAUCUCUCUGUUGAUGUUUCUUCCCCUGACUUGUUUGGAAGUAUCCAU: 0.181 ratio
AUUACUCUAAUGGAGUACUAUUCCAAAGAAGCCUUGGGUGAUUCCAAAUCUAAGAAGUCAGCCGCUUAUAAUUACGCAUGCAUACUUAUUUUGGUGGUGGUUCAGUCUUCCAGUGAUGUU: 0.375 ratio
UCAAAAAAAAGUGUAUUUCAGACUUGGUAUUCCUACUGUGGGGUGUGGUUUUCCUUUGUUUUCCGCCGCAAAUUUGGAUGUAGACUGACAGACAUAGCUGAAUGUCUUAAUAAAUUUAAA: 0.555 ratio
GACAAAACGCACCCUACCUGGAAAGUACUUGGAGAAGAUCGCAGAGCAGAUGCAUUCCCACCGUAUCAAUGCCCUUCUGAUCAUUGGAGGAUUUGAGCCAGUGGUAAUAUGAGAGAAUGA: 0.0693 ratio
AGGAAACAGAUCAAUAAUAUAUUUUAUAGGUUUAUCUAUGAGACAGAGCAUCACAAUGGCACCGCGGAGUUACUGGAGAUCCUGGGAAGUAUAAUUAAUGGAUUUGCCUUACCACUGAAG: 1.18 ratio

Sample 2
Target: ABI1, truncated, D143A, DHFR fusion (Arabidopsis thaliana)
Method: DHFR PCA, deep sequencing
Medium: yeast
Setting: methotrexate growth selection, single substitutions
With: (+)-ABA 0 µM
Baseline: wild-type fitted maximum
Reading: higher = stronger binding
Measurement: relative binding score
Parent: PYL1, truncated, DHFR fusion (Arabidopsis thaliana); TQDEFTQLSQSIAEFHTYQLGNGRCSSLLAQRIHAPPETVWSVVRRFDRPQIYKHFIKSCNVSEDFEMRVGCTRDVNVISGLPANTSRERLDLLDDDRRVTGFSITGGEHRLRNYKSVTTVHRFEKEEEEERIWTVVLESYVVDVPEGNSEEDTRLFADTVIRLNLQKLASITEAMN
S63G: 38.1%
W134D: 10.6%
R69T: 17.4%
G102Y: -4.85%
P83F: 4.95%
F157N: 1.11%
L164P: 9.93%
R132A: 41%
E129I: 4.56%
L8C: -2.84%
I79K: 5.33%
S171P: 2.63%
E89R: -1.34%
A175W: 1.04%
R132S: 40.9%
D144T: -0.335%
F5H: 7.58%
D3F: 40.1%
S11I: 20.6%
Q31D: -1.58%
N114K: 5.46%

Sample 3
Target: Sal-like protein 4, full length isoform A (SALL4, Homo sapiens, UniProt Q9UJQ4, residues 1-1053)
Sequence of UniProt Q9UJQ4 (whole entry, looked up): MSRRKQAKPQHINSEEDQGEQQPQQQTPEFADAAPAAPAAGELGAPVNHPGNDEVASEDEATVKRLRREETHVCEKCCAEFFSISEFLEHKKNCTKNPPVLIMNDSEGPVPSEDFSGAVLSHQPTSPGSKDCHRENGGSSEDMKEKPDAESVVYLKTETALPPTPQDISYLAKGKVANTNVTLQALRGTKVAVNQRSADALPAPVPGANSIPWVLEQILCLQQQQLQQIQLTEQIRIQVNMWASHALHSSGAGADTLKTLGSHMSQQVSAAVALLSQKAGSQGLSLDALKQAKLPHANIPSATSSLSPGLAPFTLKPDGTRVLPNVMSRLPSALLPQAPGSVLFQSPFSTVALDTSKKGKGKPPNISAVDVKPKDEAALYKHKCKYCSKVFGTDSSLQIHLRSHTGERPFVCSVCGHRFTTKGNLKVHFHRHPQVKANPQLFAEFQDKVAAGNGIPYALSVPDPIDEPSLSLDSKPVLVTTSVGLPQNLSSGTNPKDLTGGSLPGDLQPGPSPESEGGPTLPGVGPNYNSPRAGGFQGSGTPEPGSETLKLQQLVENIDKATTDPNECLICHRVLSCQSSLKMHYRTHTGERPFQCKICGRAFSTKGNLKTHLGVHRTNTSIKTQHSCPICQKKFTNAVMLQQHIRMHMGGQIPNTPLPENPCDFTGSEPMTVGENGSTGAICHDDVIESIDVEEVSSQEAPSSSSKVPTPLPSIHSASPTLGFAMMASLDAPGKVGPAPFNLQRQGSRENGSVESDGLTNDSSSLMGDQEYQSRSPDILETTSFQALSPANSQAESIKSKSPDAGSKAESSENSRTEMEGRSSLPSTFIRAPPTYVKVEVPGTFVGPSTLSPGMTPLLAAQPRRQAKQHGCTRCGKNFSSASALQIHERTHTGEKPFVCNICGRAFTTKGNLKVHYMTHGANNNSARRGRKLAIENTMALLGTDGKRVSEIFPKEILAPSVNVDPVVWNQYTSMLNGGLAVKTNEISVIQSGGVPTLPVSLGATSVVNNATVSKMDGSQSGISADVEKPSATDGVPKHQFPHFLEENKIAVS
Method: universal PBM
Molecule type: double-stranded DNA, one strand shown
Medium: in vitro
Tested at: 600 nM
Setting: 8-mer, flanks averaged, mean of replicates
Reading: higher = stronger binding
Measurement: E-score
CGAGAGGA: -0.115
CCGAAGCC: -0.341
AATACAAC: 0.264
CTCTTGGA: -0.0616
GGCCTAAC: -0.192
ACCCGCCG: -0.262
ATCCCACC: -0.183
AGGTAAAG: 0.197
CTGACATC: 0.0263
AAATTATA: 0.389
CATTGCCG: -0.0949
CCACAGGC: -0.271
ATCCAACC: -0.106
TAATCTAA: 0.278
AATAGGGG: 0.0163
CTGATCAC: -0.064
AAGGCCAC: -0.277
ATCCGCCC: -0.267
CAGCTTGA: -0.0354
CCAGGCTA: -0.275
GCCTGACA: -0.274
ATTCGTCC: 0.105
AGGTTCGG: -0.195
CTTGACCC: -0.281
CTAGTGAG: -0.189

Sample 4
Target: CCNB1, cyclin fold, Cln2 fusion (human)
Method: yeast growth competition, sequencing
Medium: yeast
Setting: strong parent motif
Baseline: not given
Reading: higher = stronger binding
Measurement: normalised enrichment score
Parent: E2F1 docking peptide (human); PPVKRRLDLETDH; partner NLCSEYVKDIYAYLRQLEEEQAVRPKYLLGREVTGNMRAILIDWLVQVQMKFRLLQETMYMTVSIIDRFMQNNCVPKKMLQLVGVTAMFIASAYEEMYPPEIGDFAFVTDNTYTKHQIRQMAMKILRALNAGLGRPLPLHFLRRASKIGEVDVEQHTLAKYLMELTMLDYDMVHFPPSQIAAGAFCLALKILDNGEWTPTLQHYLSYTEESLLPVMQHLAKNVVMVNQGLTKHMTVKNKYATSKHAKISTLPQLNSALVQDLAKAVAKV
P2Q: 0.336
P2M: 0.297
D12S: 1.36
P1A: 1.78
E10I: 1.35
D12F: 2.02
D12E: 1.36
E10L: 0.87
E10K: -0.351
H13P: 1.04
T11C: 1.57
E10F: 1.94
R6W: 0.624
V3N: 0.758
H13I: 1.8
K4H: 0.758
K4E: 1.42
R5A: 0.387
L7E: -0.117

Excerpt of the above (sample 3):
GGCCTAAC: -0.192
CTGACATC: 0.0263
ATCCCACC: -0.183
CTCTTGGA: -0.0616
ACCCGCCG: -0.262
AGGTAAAG: 0.197
AATACAAC: 0.264
